Measurements pooled from the literature.
“And” joins repeats or separate records; there may be more than shown. Numbers after ± are the reported error. In brackets after ≈: the same amount, converted by molar mass.
GBA2: Beta-glucosidase (GBA2, Homo sapiens, UniProt Q9HCG7)
UniProt Q9HCG7, sequence (whole entry, looked up): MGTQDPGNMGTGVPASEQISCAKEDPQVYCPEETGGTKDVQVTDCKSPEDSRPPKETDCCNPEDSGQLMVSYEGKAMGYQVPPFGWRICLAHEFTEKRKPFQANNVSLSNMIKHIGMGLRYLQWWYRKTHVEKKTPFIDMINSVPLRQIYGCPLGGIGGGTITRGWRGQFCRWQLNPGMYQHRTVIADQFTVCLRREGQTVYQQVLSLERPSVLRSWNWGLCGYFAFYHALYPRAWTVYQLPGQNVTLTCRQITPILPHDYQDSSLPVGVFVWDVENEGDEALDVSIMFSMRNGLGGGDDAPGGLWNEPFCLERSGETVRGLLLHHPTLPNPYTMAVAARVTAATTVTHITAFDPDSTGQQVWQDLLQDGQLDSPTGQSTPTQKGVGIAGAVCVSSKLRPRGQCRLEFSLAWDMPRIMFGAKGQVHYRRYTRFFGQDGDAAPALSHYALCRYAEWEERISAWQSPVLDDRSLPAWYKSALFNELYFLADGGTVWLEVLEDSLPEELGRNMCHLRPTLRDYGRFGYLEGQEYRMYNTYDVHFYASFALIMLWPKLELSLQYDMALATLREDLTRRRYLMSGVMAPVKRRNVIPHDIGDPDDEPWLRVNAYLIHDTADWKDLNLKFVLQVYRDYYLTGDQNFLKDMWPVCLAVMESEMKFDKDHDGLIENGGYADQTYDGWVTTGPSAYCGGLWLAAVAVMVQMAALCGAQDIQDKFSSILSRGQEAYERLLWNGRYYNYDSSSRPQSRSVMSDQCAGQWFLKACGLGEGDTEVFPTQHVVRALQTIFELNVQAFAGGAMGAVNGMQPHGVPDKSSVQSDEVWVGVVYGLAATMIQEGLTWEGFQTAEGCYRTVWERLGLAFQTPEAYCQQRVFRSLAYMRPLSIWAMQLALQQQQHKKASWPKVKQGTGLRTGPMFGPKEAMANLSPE
UniProt P03372, sequence (whole entry, looked up): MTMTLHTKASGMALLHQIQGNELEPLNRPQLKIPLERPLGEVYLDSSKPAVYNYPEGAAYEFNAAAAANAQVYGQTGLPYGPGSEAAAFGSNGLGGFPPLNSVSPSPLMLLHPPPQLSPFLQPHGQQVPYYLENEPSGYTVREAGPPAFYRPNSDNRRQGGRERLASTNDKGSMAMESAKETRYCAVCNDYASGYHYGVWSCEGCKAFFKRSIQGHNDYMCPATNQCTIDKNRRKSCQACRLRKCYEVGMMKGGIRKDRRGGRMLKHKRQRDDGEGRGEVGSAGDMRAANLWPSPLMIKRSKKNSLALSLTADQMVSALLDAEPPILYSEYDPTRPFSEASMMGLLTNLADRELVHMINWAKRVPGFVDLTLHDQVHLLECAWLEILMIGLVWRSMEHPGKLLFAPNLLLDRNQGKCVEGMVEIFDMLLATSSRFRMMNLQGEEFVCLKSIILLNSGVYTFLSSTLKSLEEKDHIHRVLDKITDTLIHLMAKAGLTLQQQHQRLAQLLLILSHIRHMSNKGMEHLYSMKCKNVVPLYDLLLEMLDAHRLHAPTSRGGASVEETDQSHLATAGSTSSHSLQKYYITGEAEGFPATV

| SMILES | target or system | test | system | conditions | how to read | measurement | result |
| --- | --- | --- | --- | --- | --- | --- | --- |
| C=C(NC(=O)c1csc(-c2nc3c(cc2O)-c2nc(cs2)C(=O)NC(C(C)O)C(=O)NC(=C(C)OC)c2nc(cs2)C(=O)NC2c4nc(cs4)C(=O)NC(COC(=O)c4c5c6c(cccc6n4O)COC(=O)C(OC4CC(C)(O)C(N(C)C)C(C)O4)C2OC5)c2nc-3cs2)n1)C(N)=O (stereo not shown) | human hepatocytes | measured: CYP3A4 |  | concentration not given, 3 days | reference: negative control | mRNA level | < 4 fold |
| N#Cc1ccc(-c2ccc(COCCCCCN3C[C@H](O)[C@@H](O)[C@H](O)[C@H]3CO)cc2)cc1 | GBA2 | inhibitor, 4MU-β-D-glucopyranoside | HEK293T homogenates overexpressing GBA2 |  | reference: GCS IC50 over GBA2 IC50 | selectivity ratio | 50 |
| CC(C)NCCCn1c(Sc2cc(Cl)cc(Cl)c2)nc2c(N)ncnc21 | MDA-MB-468 | cytotoxicity, Alamar blue |  | 72 h |  | IC50 | 0.107 µM |
| N=C(N)NCCC[C@@H]1NC(=O)[C@H](CCCNC(=N)N)NC(=O)[C@@H](Cc2ccc3ccccc3c2)NC(=O)[C@H](Cc2c[nH]c3ccccc23)NC(=O)[C@@H](Cc2ccc3ccccc3c2)NC(=O)[C@@H](CCCNC(=N)N)NC(=O)[C@@H](CCCNC(=N)N)NC1=O | HEKa | cell growth or viability, MTS |  | 200 µg/mL, 24 h |  | viability | 47 to 50% |
| O=c1c2ccccc2n(CC2CC2)c(=O)n1O | MDCK |  | Caco-2 | 10 µM |  | efflux ratio | 0.18 |
| CC(C)C[C@H](NC(=O)[C@@H](CCCCNC(=O)[C@@H](Cc1ccccc1)NC(=O)CCCCCNC(=O)CN1CCN(CC(=O)O)CCN(CC(=O)O)CCN(CC(=O)O)CC1)NC(=O)[C@H](Cc1ccc(O)cc1)NC(=O)[C@H](CO)NC(=O)[C@H](Cc1c[nH]c2ccccc12)NC(=O)[C@H](Cc1c[nH]cn1)NC(=O)[C@@H]1CCC(=O)N1)C(=O)N[C@@H](CCCNC(=N)N)C(=O)N1CCC[C@H]1C(=O)NCC(N)=O [indium-111 labelled] |  |  | female athymic nude mice, pancreas | intravenous, 0.037 MBq, 4 h |  | tissue uptake | 0.01 ± 0.01 %ID/g |
| O=C(CCCc1cn(C[C@H]2O[C@@H]3O[C@H]4[C@H](O)[C@@H](O)[C@@H](O[C@H]5[C@H](O)[C@@H](O)[C@@H](O[C@H]6[C@H](O)[C@@H](O)[C@@H](O[C@H]7[C@H](O)[C@@H](O)[C@@H](O[C@H]8[C@H](O)[C@@H](O)[C@@H](O[C@H]9[C@H](O)[C@@H](O)[C@@H](O[C@H]2[C@H](O)[C@H]3O)O[C@@H]9CO)O[C@@H]8CO)O[C@@H]7CO)O[C@@H]6CO)O[C@@H]5CO)O[C@@H]4CO)nn1)N[C@H]1CCOC1=O |  | NMR | water | 20 °C |  | solubility | 5.2 mM (≈ 7050 µg/mL) |
| O=c1[nH]cccc1[C@H](CO)Nc1nc(N2C[C@@H]3C[C@H]2CO3)c2cc(-c3ccccc3)sc2n1 | RRCK (MDCK) |  |  |  |  | Papp | 12.5 ± 0.5 ×10⁻⁶ cm/s |
| CC(C)(O)Cn1nc(-c2ccccc2)c2c(Cl)c(-c3ccccc3)nnc21 | MDCK (wild-type) |  |  | 10 µM, 1 h, pH 7.4 |  | Papp (A to B) | 20 ×10⁻⁶ cm/s |
| O=CCNCCOn1c(=O)n(OCCNCCO)c(=O)n(OCCNCCOn2c(=O)n(OCCNCCO)c(=O)n(OCCNCCO)c2=O)c1=O | HUVEC | cell growth or viability, MTT |  | 24 h |  | IC50 | 100 µg/mL |
| COC1CN([C@H]2CC[C@H]([C@@]3(C)Oc4c(Cl)cc(C(=O)NCc5c(SC)cc(C)[nH]c5=O)c(C)c4O3)CC2)C1 |  | RNA-seq, measured: PDCD1LG2 | human, whole blood | dose not given, 24 h | reference: pretreatment baseline | log2 fold change | 1.01 |
| N#Cc1ccc(Nc2nc(N)cc(Oc3ccc(-c4cccc(F)c4)cc3F)n2)cc1 | MT4 uninfected |  |  |  |  | CC50 | 13.9 ± 2.7 µM |
| Cn1ccc([C@H](CCO)Nc2nc(N3CCOCC3)c3cc(-c4ccccc4)sc3n2)n1 | RRCK (MDCK) |  |  |  |  | Papp | 41 ×10⁻⁶ cm/s |
| C=C1CN(C(=N)N)CC2Nc3c(F)cc(Br)cc3C12CCNS(=O)(=O)c1ccc(Cl)cc1.O=C(O)C(F)(F)F (stereo not shown) | MDCK | permeability |  |  |  | Papp | 2.11 ± 0.353 ×10⁻⁶ cm/s |
| CCN(CC)CC1=C/C(=N/c2ccnc3cc(Cl)ccc23)C=CC1=O | human primary hepatocytes pooled | cytotoxicity, resazurin reduction |  | 2 h, without dicoumarol |  | IC50 | 27 µM |
| OC[C@H]1N[C@H](C/C=C/CCOCC23CC4CC(CC(C4)C2)C3)[C@H](O)[C@@H](O)[C@@H]1O | GBA2 | inhibitor, 4MU-β-D-glucopyranoside | HEK293T homogenates overexpressing GBA2 |  | reference: GBA1 IC50 over GBA2 IC50 | selectivity ratio | 13 |
| CC[C@H](C)C(=O)O[C@H]1C[C@@H](C)C=C2C=C[C@H](C)[C@H](CC[C@@H]3CC=CC(=O)O3)[C@H]21 | T84 | MTT |  | 1 and 20 µM, 24 h |  | viability | no effect |
| N=C(N)NCCC[C@@H]1NC(=O)[C@H](CCCNC(=N)N)NC(=O)[C@@H](CCCNC(=N)N)NC(=O)[C@@H](CCCNC(=N)N)NC(=O)[C@@H](C(c2ccccc2)c2ccccc2)NC(=O)[C@H](Cc2c[nH]c3ccccc23)NC(=O)[C@@H](C(c2ccccc2)c2ccccc2)NC1=O | HEKa | cell growth or viability, MTS |  | 100 µg/mL, 24 h |  | viability | > 90% |
| O=S(=O)(NCc1ccncc1)c1ccc(C2CCCCC2)cc1 | human bone marrow cells | erythroid colony formation |  | 14 d |  | EC50 | > 1 µM |
| COc1cc(N2CCN(C(=O)C3CCCN3)CC2)ccc1Nc1ncc(Cl)c(Nc2ccccc2P(C)(C)=O)n1 (stereo not shown) | NCI-H3122 | cell growth or viability, CCK-8 |  | 50 nM, 48 h |  | viability | 36% and 41% |
| N#Cc1c(N)nc2c(c1-c1ccc(CO)o1)Cc1cc(O)ccc1-2 | Raji | cytotoxicity, CellTiter-Glo |  | 96 h |  | IC50 | > 100 µM |
| O=c1c2sccc2n(CC2COc3ccccc3O2)c(=O)n1O (stereo not shown) | MDCK |  | Caco-2 | 10 µM |  | Papp A→B | 4.4 ×10⁻⁶ cm/s |
| COc1ccc(Cn2cc(CO[C@@H]3O[C@H]4[C@H](OC[C@H]4O)[C@H]3N=[N+]=[N-])nn2)cc1 | CAL-51 | cytotoxicity, CellTiter-Glo |  | up to 30 µM, 72 h |  | viability | not toxic |
| O=C1NC2(CC2)COc2ncc(F)cc2[C@H]2COCCN2c2ccn3ncc1c3n2 | CHL |  |  | 20 µg/mL, 24 h, without S9 |  | numerical aberrations | 0% |
| COc1ccc(Cn2c(=O)n(O)c(=O)c3ccccc32)cc1 | MDCK |  | Caco-2 | 10 µM |  | efflux ratio | 0.084 |
| CN1CCCNC(=O)c2cccc(c2)C(=O)NCCCN(C)CCCNc2cccc3c2C(=O)c2cccc(c2C3=O)NCCC1 | Ca9-22 | cell growth or viability, CCK-8 |  | 15 nM, 48 h |  | viability | 90.9% |
| CC[C@@H]([C@H](CC)c1ccc(O)cc1)[C@@H](C)c1ccc(O)cc1 | Estrogen receptor (ESR1, Homo sapiens, UniProt P03372) | reporter gene, luciferase reporter (3xERE) | 293T | 24 h |  | EC50 | 0.000937 µM |
| COc1cc(-c2cncc(-c3ccc(C4CCN(C)CC4)cc3)c2C)cc(OC)c1OC | Caco-2 (C2BBe1) monolayers |  |  | 5 µM, 120 min, pH 7.4 |  | Papp A to B | 9.7 ×10⁻⁶ cm/s |

For quick reference, copied from above:
| SMILES | target or system | test | system | conditions | how to read | measurement | result |
| --- | --- | --- | --- | --- | --- | --- | --- |
| CC(C)(O)Cn1nc(-c2ccccc2)c2c(Cl)c(-c3ccccc3)nnc21 | MDCK (wild-type) |  |  | 10 µM, 1 h, pH 7.4 |  | Papp (A to B) | 20 ×10⁻⁶ cm/s |
| O=CCNCCOn1c(=O)n(OCCNCCO)c(=O)n(OCCNCCOn2c(=O)n(OCCNCCO)c(=O)n(OCCNCCO)c2=O)c1=O | HUVEC | cell growth or viability, MTT |  | 24 h |  | IC50 | 100 µg/mL |
| COC1CN([C@H]2CC[C@H]([C@@]3(C)Oc4c(Cl)cc(C(=O)NCc5c(SC)cc(C)[nH]c5=O)c(C)c4O3)CC2)C1 |  | RNA-seq, measured: PDCD1LG2 | human, whole blood | dose not given, 24 h | reference: pretreatment baseline | log2 fold change | 1.01 |
| N#Cc1ccc(Nc2nc(N)cc(Oc3ccc(-c4cccc(F)c4)cc3F)n2)cc1 | MT4 uninfected |  |  |  |  | CC50 | 13.9 ± 2.7 µM |
